Published values of several laboratories.
Each line is one published result; not all experiments were run side by side. Numbers after ± are the reported error.
Target: Cytoplasmic tyrosine-protein kinase BMX (BMX, Homo sapiens, UniProt P51813)
Sequence (P51813 1-675, as in one of the studies): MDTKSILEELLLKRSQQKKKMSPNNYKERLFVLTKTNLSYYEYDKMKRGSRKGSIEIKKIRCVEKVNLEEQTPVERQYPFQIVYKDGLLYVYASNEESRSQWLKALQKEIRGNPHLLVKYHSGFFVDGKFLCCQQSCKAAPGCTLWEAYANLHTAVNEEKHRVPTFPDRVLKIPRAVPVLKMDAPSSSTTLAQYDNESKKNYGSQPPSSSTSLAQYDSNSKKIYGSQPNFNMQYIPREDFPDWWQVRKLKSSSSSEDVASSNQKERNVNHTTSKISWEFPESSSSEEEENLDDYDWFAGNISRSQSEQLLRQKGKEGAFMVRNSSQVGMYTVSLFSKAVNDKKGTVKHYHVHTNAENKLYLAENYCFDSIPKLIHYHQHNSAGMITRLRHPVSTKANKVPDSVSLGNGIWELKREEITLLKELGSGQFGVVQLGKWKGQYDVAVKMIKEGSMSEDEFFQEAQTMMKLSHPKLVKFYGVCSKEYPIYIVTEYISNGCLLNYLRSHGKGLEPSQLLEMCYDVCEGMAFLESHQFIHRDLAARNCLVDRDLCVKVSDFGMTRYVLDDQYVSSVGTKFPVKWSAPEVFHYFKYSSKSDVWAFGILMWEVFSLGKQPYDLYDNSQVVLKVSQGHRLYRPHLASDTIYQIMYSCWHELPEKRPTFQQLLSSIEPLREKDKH

COc1cc(F)ccc1-c1ncnc(Nc2cccc(C[S@](C)(=N)=O)c2)n1
remaining activity (kinase activity; 10 µM, with: 10 µM ATP): 36%

C=CC(=O)N1CCC(COCC(=O)N2CCN(c3nc(-c4cnc(N)nc4C(F)F)nc(N4CCOC[C@@H]4C)n3)CC2)CC1
remaining binding (KINOMEscan; 1 µM): 96%

CC(C)(C=C(C#N)C(=O)N1CCC[C@H]1Cn1nc(-c2ccc(Oc3ccccc3)cc2F)c2c(N)ncnc21)N1CCOCC1
residence time (fluorescence competition): 780 ± 240 min

O=C(NC1CCC1)c1ccc2nc(-c3cccc(NS(=O)(=O)NCCN4CCCCC4)c3)cn2c1
remaining activity (enzyme activity; 10 µM): 87%

[2H]c1cc(C)c(NC(=O)c2cnc(Nc3cc(N4CCCCC4)nc(C)n3)s2)c(Cl)c1
inhibition (0.01 µM): > 90%

CNc1ncc2c(/C=C/C(=O)N3CCC(OC)CC3)nn(Cc3cccc(C(F)(F)F)c3)c2n1
remaining activity (kinase activity, inhibitor; 1 µM; relative to: untreated control): 106%

Cc1nc(Nc2ncc(C(=O)Nc3c(C)cccc3Cl)s2)cc(N2CC[C@H](O)C2)n1
inhibition (0.001 µM): 77%

N#C/C(=C\C1CC1)C(=O)N1CCC[C@@H]1Cn1nc(-c2ccc(Oc3ccccc3)cc2F)c2c(N)ncnc21
residence time (fluorescence competition): 480 ± 126 min

Repeated from above:
CC(C)(C=C(C#N)C(=O)N1CCC[C@H]1Cn1nc(-c2ccc(Oc3ccccc3)cc2F)c2c(N)ncnc21)N1CCOCC1
residence time (fluorescence competition): 780 ± 240 min
